# Experimental data of several laboratories.
# Each numbered part is a random draw from the data of one study; scales do not carry over between parts. Positions count from the first letter of the parent shown.
# Chain of UniProt Q9ZTX9 (whole entry, looked up): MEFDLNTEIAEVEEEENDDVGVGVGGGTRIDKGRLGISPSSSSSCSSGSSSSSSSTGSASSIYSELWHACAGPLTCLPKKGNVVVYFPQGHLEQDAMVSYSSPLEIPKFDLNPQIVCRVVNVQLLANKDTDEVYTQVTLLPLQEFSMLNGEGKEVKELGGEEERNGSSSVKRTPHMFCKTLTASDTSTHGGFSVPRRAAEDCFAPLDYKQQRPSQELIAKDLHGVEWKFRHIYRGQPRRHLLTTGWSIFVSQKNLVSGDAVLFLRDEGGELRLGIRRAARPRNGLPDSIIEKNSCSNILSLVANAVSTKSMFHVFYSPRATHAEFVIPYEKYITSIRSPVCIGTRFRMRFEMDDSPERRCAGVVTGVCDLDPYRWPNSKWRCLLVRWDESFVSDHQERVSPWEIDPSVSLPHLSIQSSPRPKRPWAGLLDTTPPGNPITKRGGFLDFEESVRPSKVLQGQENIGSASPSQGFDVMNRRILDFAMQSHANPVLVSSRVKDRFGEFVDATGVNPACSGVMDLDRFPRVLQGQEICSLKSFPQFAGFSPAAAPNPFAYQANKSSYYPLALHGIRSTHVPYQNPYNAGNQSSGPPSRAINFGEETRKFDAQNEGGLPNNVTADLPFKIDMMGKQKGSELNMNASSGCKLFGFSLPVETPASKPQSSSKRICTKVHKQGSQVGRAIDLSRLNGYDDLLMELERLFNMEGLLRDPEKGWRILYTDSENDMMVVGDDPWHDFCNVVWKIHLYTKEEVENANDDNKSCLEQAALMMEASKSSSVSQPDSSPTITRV
# Chain of UniProt Q8H174 (whole entry, looked up): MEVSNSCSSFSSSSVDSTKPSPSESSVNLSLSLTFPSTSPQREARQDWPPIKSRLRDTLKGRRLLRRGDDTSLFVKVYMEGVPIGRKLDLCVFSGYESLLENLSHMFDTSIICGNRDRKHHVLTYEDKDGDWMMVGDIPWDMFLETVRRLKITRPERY
# Chain of UniProt P93024 (whole entry, looked up): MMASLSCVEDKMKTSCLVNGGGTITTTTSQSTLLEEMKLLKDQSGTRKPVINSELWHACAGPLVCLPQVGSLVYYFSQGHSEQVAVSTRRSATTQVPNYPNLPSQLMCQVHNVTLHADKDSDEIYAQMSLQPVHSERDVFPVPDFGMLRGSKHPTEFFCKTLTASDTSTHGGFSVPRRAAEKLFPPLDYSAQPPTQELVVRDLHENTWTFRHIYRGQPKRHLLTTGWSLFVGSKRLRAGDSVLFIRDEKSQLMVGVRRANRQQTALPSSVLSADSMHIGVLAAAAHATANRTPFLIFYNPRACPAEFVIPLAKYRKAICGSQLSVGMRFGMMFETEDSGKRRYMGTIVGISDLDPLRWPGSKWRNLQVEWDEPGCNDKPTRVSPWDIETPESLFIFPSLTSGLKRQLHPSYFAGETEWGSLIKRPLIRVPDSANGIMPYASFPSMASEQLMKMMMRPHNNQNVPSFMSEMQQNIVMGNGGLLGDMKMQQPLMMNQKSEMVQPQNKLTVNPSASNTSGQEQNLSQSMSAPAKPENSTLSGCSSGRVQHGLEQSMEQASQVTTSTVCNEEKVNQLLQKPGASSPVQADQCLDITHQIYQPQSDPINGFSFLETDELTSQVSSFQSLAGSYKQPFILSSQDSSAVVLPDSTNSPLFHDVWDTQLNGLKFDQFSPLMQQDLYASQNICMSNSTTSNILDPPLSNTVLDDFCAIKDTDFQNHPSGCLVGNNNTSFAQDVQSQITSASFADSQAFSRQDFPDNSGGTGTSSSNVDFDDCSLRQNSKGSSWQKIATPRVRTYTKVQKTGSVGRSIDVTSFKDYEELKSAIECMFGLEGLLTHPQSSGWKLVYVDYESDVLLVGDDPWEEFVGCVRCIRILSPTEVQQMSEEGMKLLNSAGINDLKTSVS
# Chain of UniProt Q9LQE8 (whole entry, looked up): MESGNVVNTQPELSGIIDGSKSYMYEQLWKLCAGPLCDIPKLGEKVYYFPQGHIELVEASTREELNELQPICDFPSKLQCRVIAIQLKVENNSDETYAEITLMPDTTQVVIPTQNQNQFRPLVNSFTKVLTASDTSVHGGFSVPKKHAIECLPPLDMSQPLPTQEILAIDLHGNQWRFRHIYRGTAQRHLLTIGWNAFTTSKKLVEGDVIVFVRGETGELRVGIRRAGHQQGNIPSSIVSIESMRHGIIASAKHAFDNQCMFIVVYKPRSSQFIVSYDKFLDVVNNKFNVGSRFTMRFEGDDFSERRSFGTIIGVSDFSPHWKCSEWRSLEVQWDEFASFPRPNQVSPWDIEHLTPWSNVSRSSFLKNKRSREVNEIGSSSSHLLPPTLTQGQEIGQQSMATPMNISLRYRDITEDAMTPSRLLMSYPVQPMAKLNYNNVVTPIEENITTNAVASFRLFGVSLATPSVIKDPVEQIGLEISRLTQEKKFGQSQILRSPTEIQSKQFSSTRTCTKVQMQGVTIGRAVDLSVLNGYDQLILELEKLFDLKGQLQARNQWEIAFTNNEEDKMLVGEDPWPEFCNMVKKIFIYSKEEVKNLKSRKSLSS
# Chain of UniProt Q9M1R4 (whole entry, looked up): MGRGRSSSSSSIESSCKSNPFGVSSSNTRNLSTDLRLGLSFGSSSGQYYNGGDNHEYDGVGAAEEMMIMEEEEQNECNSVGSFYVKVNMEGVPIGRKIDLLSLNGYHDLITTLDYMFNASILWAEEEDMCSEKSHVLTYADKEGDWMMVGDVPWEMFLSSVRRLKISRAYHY

# Series 1 — target: CCND2, cyclin fold, Cln2 fusion (human); method: yeast growth competition, sequencing; medium: yeast; notes: weak parent motif; reference: not given; direction: higher = stronger binding
# Parent: E2F1 docking peptide (human); PPVKRRLDLETDH; partner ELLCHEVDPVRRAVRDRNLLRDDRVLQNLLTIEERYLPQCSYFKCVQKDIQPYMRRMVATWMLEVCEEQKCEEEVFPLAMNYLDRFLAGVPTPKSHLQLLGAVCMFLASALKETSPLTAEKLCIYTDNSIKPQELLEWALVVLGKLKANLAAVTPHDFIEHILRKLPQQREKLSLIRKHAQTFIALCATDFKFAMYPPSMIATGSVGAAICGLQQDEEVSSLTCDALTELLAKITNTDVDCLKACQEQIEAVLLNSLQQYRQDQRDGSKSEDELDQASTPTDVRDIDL
Variant,normalised enrichment score
P1S,0.144
K4N,-0.0691
K4E,-0.00739
R5F,-0.0301
E10G,0.409
R6A,0.186
P1Q,0.379
E10I,0.409
D12M,0.291
H13D,0.412
V3L,-0.394
E10H,0.588
D8N,0.249
V3F,0.266
T11M,-0.0445
H13N,0.312
R5I,0.0909
K4R,0.00656
H13I,0.31
L7R,-0.338
D8P,0.0446
P2W,-0.0951
D12G,0.286
P1D,-0.258
E10L,0.308

# Series 2 — method: protein-binding microarray; form: double-stranded DNA, one strand shown; medium: in vitro; concentration: 0.8 µM; notes: whole 60-bp probe, no competitor; direction: higher = stronger binding; all sequences stand within: … GTCTTGATTCGCTTGACGCTGCTG
# Target: Centromere-binding protein 1, full length, N-terminal tag (CBF1, Saccharomyces cerevisiae, UniProt P17106, residues 1-351)
# Chain of UniProt P17106 (whole entry, looked up): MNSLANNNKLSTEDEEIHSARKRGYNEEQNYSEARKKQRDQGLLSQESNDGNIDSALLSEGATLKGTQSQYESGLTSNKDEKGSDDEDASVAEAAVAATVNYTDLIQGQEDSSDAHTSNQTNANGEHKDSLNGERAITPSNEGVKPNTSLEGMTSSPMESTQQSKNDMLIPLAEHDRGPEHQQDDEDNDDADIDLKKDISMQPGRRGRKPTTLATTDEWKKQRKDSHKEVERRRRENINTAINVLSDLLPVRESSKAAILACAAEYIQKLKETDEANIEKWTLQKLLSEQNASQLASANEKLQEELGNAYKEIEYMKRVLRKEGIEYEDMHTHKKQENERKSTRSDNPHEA
Strand,fluorescence intensity [a.u.]
GAAGAAGAAGAAAAACATCAGGGACAGATGAAATAG,542
CTAATGTTCTGCAAGAGCGTGCCTGGCCCTTGGTTC,541
CTAGCAACTGAACTTCTGATGTTTACTTTTTGATTC,526
CTAGTTCCCGAATGTTGTAACATCAAAGCCAAGTTC,531
CCTAACTACTATAACGTGAGCAAATAGCTTCGTACA,665
TGTACGAAGCTATTTCTGATGATTATAGTAGTTAGG,486
GAATCAAGTATGTACCTCACGAGAGCAATTTCATAG,576
GAATGATCACATTTCCACGCCATTTCGCATTCTTAG,601
CTATGGAGATCCAGTCACGCCGGATGACTGGGTTTC,765
GAATTCAGCAATGGCCGCACGCCAGGACATGTGTAG,485
GAAATTGTTGGATCAGCTGTGCTAAGGGGAAGGTAG,687

# Series 3 — method: protein-binding microarray; form: double-stranded DNA, one strand shown; medium: in vitro; concentration: 2540 nM top; notes: 60-bp whole probe; added: salmon DNA 0.4 mg/ml; reference: random background probes; direction: higher = stronger binding; all sequences stand within: GCCTAGCAC … GTCTTGATTCGCTTGACGCTGCTG
# Target: Interferon regulatory factor 3, full length, phosphomimetic (IRF3, Homo sapiens, UniProt Q14653, residues 1-427, S386D/S396D/S398D/S402D/T404D/S405D)
# Target sequence (chain): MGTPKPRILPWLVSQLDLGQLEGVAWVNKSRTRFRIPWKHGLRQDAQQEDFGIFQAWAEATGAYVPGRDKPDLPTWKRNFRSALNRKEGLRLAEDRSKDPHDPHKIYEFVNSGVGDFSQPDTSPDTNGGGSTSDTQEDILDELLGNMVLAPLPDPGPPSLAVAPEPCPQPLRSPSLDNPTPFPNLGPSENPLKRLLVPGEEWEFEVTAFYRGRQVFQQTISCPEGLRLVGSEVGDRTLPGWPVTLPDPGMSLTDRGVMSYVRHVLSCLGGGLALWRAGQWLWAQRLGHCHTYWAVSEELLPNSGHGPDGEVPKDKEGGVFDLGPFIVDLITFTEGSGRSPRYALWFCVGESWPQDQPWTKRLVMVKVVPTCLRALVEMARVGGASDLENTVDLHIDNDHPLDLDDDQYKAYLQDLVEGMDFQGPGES
Strand,fitted relative affinity [z-score]
AGCACTTTGGCATGTCTTGACGTGCTA,-0.8
GACGATATCAGTCTCGAGAGGTGCTAG,0.895
TTAGGTCTCGGTTACGGTTAGTGCTAG,1
TCACAATTCTCTTTTCAACTGTGCTAG,1.7
GACGGGTTCGACTTTCGGGACGTGCTA,0.589
GACGTACTGGGTATCGGGACGTGCTAG,0.0558
TTAGAACTGGGGTTTCGCTTAGTGCTA,0.95
TTAGGTATCCTTTGCCTTTAGTGCTAG,2.43
GAAGTTCTTTTTTTCAAGAAGTGCTAG,1.47
AGTGTGGTCTGTTTCTGATAGTGCTAG,1.6
GACGGTCTCCTAATCCTGACGTGCTAG,2.19
TTAGATCTCAGACTGGATAAGTGCTAG,0.0587
TTAGATTTCGGGTTTCGGTTAGTGCTA,3.87
ATAGGTATCGACACTGGGTTAGTGCTA,0.301
TCTTTTTGCACTCTCTACATGTGCTAG,1.72
GACAGTATCCTTTTCCTGACGTGCTAG,8.42
TCACTTCTCCTCTAGGTTACTGTGCTA,1.92
GACGGTTACGGGACTGGGGACGTGCTA,-0.0925

# Series 4 — Molecule: B1 (IAA3); method: two-hybrid; reference: out of 4 tests; direction: higher = firmer interaction
# B1: IAA3 (Arabidopsis thaliana, UniProt Q38822); chain MDEFVNLKETELRLGLPGTDNVCEAKERVSCCNNNNKRVLSTDTEKEIESSSRKTETSPPRKAQIVGWPPVRSYRKNNIQSKKNESEHEGQGIYVKVSMDGAPYLRKIDLSCYKGYSELLKALEVMFKFSVGEYFERDGYKGSDFVPTYEDKDGDWMLIGDVPWEMFICTCKRLRIMKGSEAKGLGCGV
partner,conditions,positive tests
"IAA4 (Arabidopsis thaliana, UniProt P33077)",,4
"ARF5 788-902 (Arabidopsis thaliana, UniProt P93024)",,4
"IAA31 (Arabidopsis thaliana, UniProt Q8H174)",,3
"ARF14 497-605 (Arabidopsis thaliana, UniProt Q9LQE8)",,0
"ARF4 660-788 (Arabidopsis thaliana, UniProt Q9ZTX9)",,0
"IAA30 (Arabidopsis thaliana, UniProt Q9M1R4)",weak activation fusion,2

# Series 5 — target: ATF1, bZIP domain (human); method: DHFR protein complementation; medium: yeast; reference: wild-type JUN-FOS pair; direction: higher = stronger binding
# Notes: single substitutions, most at no-binding floor
# Parent: JUN, bZIP domain (human); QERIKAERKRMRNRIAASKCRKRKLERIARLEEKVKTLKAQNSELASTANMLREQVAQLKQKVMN; partner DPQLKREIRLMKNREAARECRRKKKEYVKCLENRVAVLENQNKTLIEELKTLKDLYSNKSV
Variant,binding fitness [natural log]
T48V,-1.53
L31I,-1.48
K39D,-1.44
K36L,-1.47
V56M,-1.53
S43L,-1.51
I28T,-1.43
L38V,-1.52
L45T,-1.54
A29Y,-1.41
Q41W,-1.51
L38W,-1.45
A29T,-1.51
Q55W,-1.56
N42G,-1.53

# Series 6 — method: protein binding microarray; form: double-stranded DNA, one strand shown; medium: in vitro; concentration: not given; reference: not given; direction: higher = stronger binding
# Target: Histone acetyltransferase KAT6A, winged helix 2, GST fusion (KAT6A, Homo sapiens, UniProt Q92794, residues 85-181)
# Notes: 8-mer, flanks averaged, mean of 2 arrays, mostly near background
# Residues (chain): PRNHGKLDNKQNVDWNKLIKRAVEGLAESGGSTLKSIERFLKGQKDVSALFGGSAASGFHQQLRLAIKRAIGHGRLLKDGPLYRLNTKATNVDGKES
Strand,E-score
GGTTCATA,-0.0554
CTACACAA,-0.0345
ATTCTCTG,-0.0567
GATCCGCA,0.0342
GCCCATCA,-0.122
CCTGTGTA,-0.0135
AGATACGA,-0.0811
AAGGTCGT,-0.0996
GGCGGGAA,-0.00269
GATGTAAC,-0.0925
CCCACGAA,0.0868
CAGATTAC,0.0318
ACAAAGTC,-0.0619
AATAGCGT,-0.109
AAGTAGCT,-0.177
AGCTAAGA,-0.00024
CGAAATGC,-0.0196
CCAAGGGC,0.11
ATGTAATG,-0.056
TTCCAGAA,0.0102
TCTAACCA,-0.0391
AACTAGCA,0.0614
CCCTTTCA,-0.0779
CCGCAGAG,0.00122
AATTTCCT,0.0641

# Series 7 — method: DHFR PCA, deep sequencing; medium: yeast; added: (+)-ABA 0.032 µM; reference: wild-type fitted maximum; direction: higher = stronger binding
# Target: ABI1, truncated, D143A, DHFR fusion (Arabidopsis thaliana)
# Notes: methotrexate growth selection, single substitutions
# Parent: PYL1, truncated, DHFR fusion (Arabidopsis thaliana); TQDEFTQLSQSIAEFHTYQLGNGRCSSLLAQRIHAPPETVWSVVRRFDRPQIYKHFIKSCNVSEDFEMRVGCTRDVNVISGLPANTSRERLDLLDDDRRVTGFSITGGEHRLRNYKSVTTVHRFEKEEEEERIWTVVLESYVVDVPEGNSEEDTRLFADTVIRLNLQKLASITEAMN
Variant,relative binding score [%]
V137T,-0.727
N149Q,50.5
A84D,23.3
R98L,15
C25Q,0.582
V100C,6.44
F103I,-1.36
S26K,-4.81
E151S,22.8
F157A,1.59
I162K,2.4
R99L,54.4

# A few entries again (series 7):
Variant,relative binding score [%]
A84D,23.3
R98L,15
C25Q,0.582
V100C,6.44
F103I,-1.36
S26K,-4.81
E151S,22.8
